Results pooled from the literature.
Each numbered part is a random draw from the data of one study; scales do not carry over between parts.

Study 1 — technique: protein-binding microarray; molecule type: double-stranded DNA, one strand shown; matrix: in vitro; concentration: not given; reading: higher = stronger binding
Target: Max dimerization protein 1, bHLH-zipper, MAX partner unstated (MXD1, Homo sapiens, UniProt Q05195, residues 56-136)
Notes: k-mer, scored over probes, only values ≥0.25
Construct (chain): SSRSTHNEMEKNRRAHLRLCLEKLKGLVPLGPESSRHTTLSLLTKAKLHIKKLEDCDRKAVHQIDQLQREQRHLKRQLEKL
Strand	E-score
CCACGTGA	0.483
CCTCCCAC	0.285
ACATGGGC	0.283
AACGTGAC	0.33
CATGGATA	0.251
CGTGGGTA	0.306
CATGAGGC	0.292
CGTGGGGA	0.275
ACACGCCT	0.336
CCACGTTA	0.382
CTACACGC	0.348
CGCCTCCC	0.299
ACGGGGCG	0.336
ACGGCATG	0.4
ACATGGAT	0.257
ATGCCATG	0.303
ATGCGGGA	0.273
ACGAGGAC	0.37
CGTGTCCC	0.365

Study 2 — technique: RNA Bind-n-Seq; molecule type: RNA; matrix: in vitro; concentration: not given; reference: input RNA pool; reading: higher = stronger binding
Target: RING finger protein unkempt homolog, zinc fingers 1-6, GST-SBP tag (UNK, Homo sapiens, UniProt Q9C0B0, residues 30-357)
Notes: RNA with constant flanks, human-mouse chimeric sites, ends assumed
Shared flanks, not repeated: GGGAGUUCUACAGUCCGACGAUC … CAACAGAGGAUUGAGCAUCA
Target sequence (chain): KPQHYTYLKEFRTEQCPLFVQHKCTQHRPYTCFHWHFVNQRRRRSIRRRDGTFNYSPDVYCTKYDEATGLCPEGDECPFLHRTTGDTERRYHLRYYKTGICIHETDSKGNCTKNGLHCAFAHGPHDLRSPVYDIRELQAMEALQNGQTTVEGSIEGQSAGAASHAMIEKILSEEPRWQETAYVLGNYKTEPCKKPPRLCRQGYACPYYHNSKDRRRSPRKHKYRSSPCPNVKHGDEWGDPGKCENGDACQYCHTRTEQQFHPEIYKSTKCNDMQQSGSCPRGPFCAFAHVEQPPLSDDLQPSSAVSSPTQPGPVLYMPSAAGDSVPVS
Strand	bound/input enrichment
UUGAAAAACACAGAUAUCAAAGUUGUUGACUUUGGAAGUGCAACGUAUGAUGAUGAACAUCACAGUACUUUGGUGUCUACCCGGCACUACAGGGCUCCCGAGGUCAUUUUGGCUUUAGGU	0.422 ratio
CUGUGUGUGCUGAAUAAUGAUUUGUGAAAGAAGUUUUUCCAAGCUGUAACCCAUGCUGUUAUUAUAGUUGCUGCAAAAUGUUCUUCCUGAUAUUGAUUUUAUUUGUUAACUGAAGGUCUC	0.408 ratio
AGAGAAAUGAGAAAGAAUCUCACACAAGAAGAGAUGCAAAGAAUGUCUACUAGAGUCCUUUUGGCGACUCUUUCCAUUCCUAUUACUCCUGAGCGAACUGAUAUUGCUCGACUUUUGGAU	0.135 ratio
CACACCCUCUUCUGCGGGACCCUCAUCUUGCAGGCCCGGGCCUAUGUGGGACCGCACGUCCUGGCAGUGGUGACUCGCACAGGGUUCUGCACGGCAAAAGGGGGCCUGGUGAGCUCCAUC	0.0866 ratio
GUUGCCAGCUUCCGGUUCCGUUGGGCUCGGUUCUCUCCUGAGCUACGUGUCUCUACGCUCUCAAUCCGCCAUCCAACGGCAGUCAUGCAGGUAAUGCAGUUUGUGGAUGAGCCAAGUCAG	0.0478 ratio
GUACUGCAGCAGCAGGGAAAACUGCAGGAAGCUCUGAUGCAUUAUAAAGAAGCCAUACGAAUCAGUCCUACAUUUGCUGAUGCCUACUCUAAUAUGGGAAACACUCUAAAGGAGAUGCAG	0.244 ratio
CAGCGCCGAGGCCGCGGUUUCCCCCUGGGCCUCCCCAGCAGCAGCCAUGGGCAUCAAAUUUUUAGAAGUUAUUAAACCUUUCUGUGCAGUUCUACCAGAAAUUCAGAAACCGGAAAGGAA	4.14 ratio
AAAGAGAAACUAAAGCAAACUGAUUGAAAGAGGAUUGGCAAAGAGAAUUUCAUAGAGAAACUAGGAUUUAUUAGCAAACAUGAGUUAUAUUCCAGAGCGUCUCAGAAAACCCCAGCCAAC	3.77 ratio

Study 3 — technique: protein-binding microarray; molecule type: double-stranded DNA, one strand shown; matrix: in vitro; concentration: 250 nM; notes: 60-bp whole probe; added: salmon DNA 0.4 mg/ml; reference: random background probes; reading: higher = stronger binding; shared flanks, not repeated: GCCTAGCAC … GTCTTGATTCGCTTGACGCTGCTG
Target: Interferon regulatory factor 7, full length, phosphomimetic (IRF7, Homo sapiens, UniProt Q92985, residues 1-503, S101K/S471D/S472D/S475D/S476D/S477D/S483D/S484D/S487D)
Target sequence (chain): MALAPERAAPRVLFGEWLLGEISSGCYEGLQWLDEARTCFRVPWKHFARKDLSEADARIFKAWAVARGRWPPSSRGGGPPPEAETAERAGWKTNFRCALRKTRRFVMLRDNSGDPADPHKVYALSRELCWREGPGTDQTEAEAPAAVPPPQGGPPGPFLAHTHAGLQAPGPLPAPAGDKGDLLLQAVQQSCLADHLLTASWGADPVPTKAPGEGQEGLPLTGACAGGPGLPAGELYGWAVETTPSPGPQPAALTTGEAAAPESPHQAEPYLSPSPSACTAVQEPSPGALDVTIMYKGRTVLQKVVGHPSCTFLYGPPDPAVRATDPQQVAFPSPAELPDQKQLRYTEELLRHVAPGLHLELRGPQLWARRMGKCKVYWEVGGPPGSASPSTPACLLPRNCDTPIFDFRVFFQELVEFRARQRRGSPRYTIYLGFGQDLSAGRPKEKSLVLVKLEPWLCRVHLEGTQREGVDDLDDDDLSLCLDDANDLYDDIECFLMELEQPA
Strand	log fluorescence [z-score]
TGAGATTTCGGGACTGGATTAGTGCTA	0.0312
GACGAACTGGGGACTGGAGACGTGCTA	-0.503
AACGATATCAGTATCGAGACGTGCTAG	0.0821
GACGGTATCGGTATCGGCACGTGCTAG	1.03
TTAGGACTGGGGTATGGGTTAGTGCTA	-0.326
GACGGTATTCTTCTCCTGACGTGCTAG	-0.0551
TCCATTTTCTGAATGCCTTGGTGCTAG	1.5
GGGTGGGAGCCGAAGACGCCGTGCTAG	-1.08
GACGAACTGAGACTGGAGAAGTGCTAG	-0.183
TCAAATCTCCCATTATAACTGTGCTAG	0.49
TCATTCTTCCCTGTGAAACTGTGCTAG	1.47
TCAGTTCTCAGCTTGGGACTGTGCTAG	1.3
GACGATATTAGTATCGAGACGTGCTAG	0.497
TCAGGGCTACCTCTCTTACTGTGCTAG	-1.09
GACGGTCTCGCTCTCGGGACGTGCTAG	-0.0163
GACGGTTTACTTCTCCTGACGTGCTAG	0.24
TTAGGACTGGGCTATCGGTTAGTGCTA	-0.297
TTCCTTGCTATGTTGCTCAGGTGCTAG	0.816
TTAGATCTCAGACTCGATTAGTGCTAG	1.11

Study 4 — technique: protein binding microarray; molecule type: double-stranded DNA, one strand shown; matrix: in vitro; concentration: not given; reference: not given; reading: higher = stronger binding
Target: Histone acetyltransferase KAT6A, winged helix 2, GST fusion (KAT6A, Homo sapiens, UniProt Q92794, residues 85-181)
Notes: 8-mer, flanks averaged, mean of 2 arrays, mostly near background
Construct (chain): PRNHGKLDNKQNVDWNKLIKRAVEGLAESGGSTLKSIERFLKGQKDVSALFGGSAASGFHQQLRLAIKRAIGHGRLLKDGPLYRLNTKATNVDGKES
Strand	E-score
CGCTTCTC	0.0513
TACCATGA	-0.147
ACCCATGA	-0.279
AACTCTAC	-0.172
GGAACCAA	0.124
GCGGCTAA	0.161
GAACCACA	0.142
ATCCATAA	0.12
CGGAAGTC	-0.0648
AGCAACAA	0.205
CATGGCAA	0.0512
ATAAGATG	-0.0532
AAGAGGCG	-0.0159
AAACGTGT	-0.227
AGATTCAT	0.0623
AGCGTTTG	-0.0589
CCGCGATA	0.0991
ACAGGACC	0.0601
AAAGGTTC	0.0689
GCAGATTA	-0.0515

For quick reference, copied from above (study 4):
Strand	E-score
ATCCATAA	0.12
CATGGCAA	0.0512
AACTCTAC	-0.172
ATAAGATG	-0.0532
GCAGATTA	-0.0515
CGCTTCTC	0.0513
